Measured values of several laboratories.
Numbers after ± are the reported error.
Cell line: A549

COc1cnc2cccc(N3CCc4c(cc(Cn5ccnc5C)cc4-c4cn(C)nc4C(F)(F)F)C3=O)c2c1 — EC50 (cell growth, inhibitor; 120 h): > 30 µM
COc1ccc2c(c1NC(=O)OCc1ccc([N+](=O)[O-])s1)CCC=C2c1cc(OC)c(OC)c(OC)c1 — IC50 (4 h, anoxic): 6 ± 4.5 µM
Nc1nc(N)c2nc(C(=O)NCc3ccccc3)cnc2n1 — cell growth (CellTiter-Glo; 10 µM; 100 none, 0 cytostatic, -100 cytotoxic): 125 ± 11.9%
CCCCN1CCN(c2ccc3[nH]c(-c4ccc5[nH]c(-c6ccc(OCC)cc6)nc5c4)nc3c2)CC1 — growth percent (SRB; 10 µM, 48 h): 86.5%
COc1cc(C2=CCCc3c2ccc(OC)c3OC(C)(C)c2ccc([N+](=O)[O-])s2)cc(OC)c1OC — IC50 (cell growth, SRB; 4 h exposure then 120 h oxic, oxic exposure then drug removal): 0.3 ± 0.04 µM
COc1ccc(OC)c(-c2nc3ccc(-c4nc5ccc(N6CCN(C)CC6)cc5[nH]4)cc3[nH]2)c1 — growth percent (SRB; 10 µM, 48 h): 109%
COc1ccc(Cc2nccc3cc(C4COC4)ccc23)cc1OC — inhibition (mitochondrial oxygen consumption, Seahorse XF96; 10 µM): 91%
ClCc1ccnc(-c2cc(CCl)ccn2)c1.F[P-](F)(F)(F)(F)F.[Ir+3].[c-]1ccccc1-c1ccccn1.[c-]1ccccc1-c1ccccn1 — number of regulated genes (microarray; 3 µM, 24 h, fold change above 2): 1220
COc1ccc2c(c1NC(=O)OC(C)c1ccc([N+](=O)[O-])s1)CCC=C2c1cc(OC)c(OC)c(OC)c1 (centres unmarked) — IC50 (cell growth, SRB; 4 h exposure then 120 h oxic, oxic exposure then drug removal): 6.79 ± 0.77 µM
c1ccc(-c2cccc(Cc3ccnc4cc(C5COC5)ccc34)c2)cc1 — inhibition (mitochondrial oxygen consumption, Seahorse XF96; 10 µM): 22%
Cn1cnc2c(F)c(Nc3ccc(Br)cc3F)c(C(=O)NOCCO)cc21 — viability (5 µM, 72 h): 52.4%
COc1cc(Oc2ccc(CNCc3cnc4nc(N)nc(N)c4n3)cc2)cc(OC)c1OC — cell growth (CellTiter-Glo; 10 µM; 100 none, 0 cytostatic, -100 cytotoxic): 109 ± 10.4%
CCOc1ccc(-c2nc3cc(-c4nc5cc(N6CCN(C)CC6)ccc5[nH]4)ccc3[nH]2)cc1OCC — growth percent (SRB; 10 µM, 48 h): 79.2%
C#CCN(Cc1cnc2nc(N)nc(N)c2n1)c1ccc(C(=O)N2CCC(C(=O)OC)CC2)cc1 — cell growth (CellTiter-Glo; 10 µM; 100 none, 0 cytostatic, -100 cytotoxic): 104 ± 4.42%
CCCc1n(Cc2ccc3ccccc3c2)c2ccccc2[n+]1Cc1ccc2ccccc2c1.[Br-] — TGI (NCI60 five-dose): 2.04 µM
COc1c(C)c(OC(C)=O)c(C)c(OC(C)=O)c1C(=O)/C=C/c1ccccc1 — selectivity index (relative to: CL over A549): 1.78
O=C1NC(c2ccccc2)(c2ccccc2)C(=O)N1Cc1cn(-c2cc3ccccc3oc2=O)nn1 — growth (NCI60 single dose; 10 µM): 91.1%
O=C1/C(=C/c2ccc3ccccc3c2O)NC(=S)N1c1ccccc1 — selectivity index (MTT; relative to: BJ1 over A549): 2
COc1ccc2c(c1)NC(=O)CN2c1nc(C)nc2ccccc12 — cells in S phase (flow cytometry; 0.001 µM, 24 h): 21.5%
COc1ccc(Oc2ccc(CN(C)Cc3cnc4nc(N)nc(N)c4n3)cc2)cc1 — cell growth (CellTiter-Glo; 10 µM; 100 none, 0 cytostatic, -100 cytotoxic): 15.3 ± 36.4%
COc1c(C)c(OC)c(C(=O)/C=C/c2ccccc2)c(OC)c1C — selectivity index (relative to: CL over A549): 0.82
Cc1cc(NS(=O)(=O)c2ccc(NC(=O)/C(C#N)=C/c3ccc(N4CCOCC4)cc3)cc2)no1 — selectivity index (cytotoxicity, MTT; relative to: HSF over A549 IC50): > 1.83
Nc1n[n+]([O-])c2ccccc2[n+]1[O-] — IC50 (cell growth, SRB; 4 h exposure then 120 h oxic, oxic exposure then drug removal): > 208 µM
COc1cc2ncnc(Cc3cccc(-c4ccccc4)c3)c2cc1OC — inhibition (mitochondrial oxygen consumption, Seahorse XF96; 10 µM): 45%
Cc1cc(=O)[nH]c(=O)n1Cc1cn(-c2c3ccccc3nc3ccccc23)nn1 — growth (NCI60 single dose; 10 µM): 92.3%
COc1cc2nccc(Cc3cccc(-c4ccccc4)c3)c2cc1OC — inhibition (mitochondrial oxygen consumption, Seahorse XF96; 10 µM): 76%
O=C(NOC[C@H](O)CO)c1ccc(F)c(F)c1Nc1ccc(I)cc1F — viability (0.03906 µM, 72 h): 99.5%
CCN(CC)c1ccc(C=NNC(=O)CSc2nc3ccccc3c(=O)n2Cc2ccc(S(N)(=O)=O)cc2)c(O)c1 — TGI (NCI five-dose screen): > 100 µM
CCCOC(=O)C1CCN(C(=O)c2ccc(N(C)Cc3cnc4nc(N)nc(N)c4n3)cc2)CC1 — cell growth (CellTiter-Glo; 10 µM; 100 none, 0 cytostatic, -100 cytotoxic): -2.32 ± 13.2%
COc1ccc(-c2cccc(Cc3ncnc4cc(OC)c(OC)cc34)c2)cc1 — inhibition (mitochondrial oxygen consumption, Seahorse XF96; 10 µM): 54%
Cc1nc(N(Cc2ccccc2)c2ccc3c(c2)/C(=C/c2ccccc2)C(=O)N3Cc2ccccc2)c2ccccc2n1 (mixture of isomers) — depolarized cells (mitochondrial membrane potential, JC-1 flow cytometry; 0.6 µM): 53.4%
COc1cc(C2=CCCc3c2ccc(OC)c3OCc2cnc([N+](=O)[O-])n2C)cc(OC)c1OC — IC50 (cell growth, SRB; 4 h exposure then 120 h oxic, oxic exposure then drug removal): 0.8 ± 0.58 µM
COc1cc2ncnc(Cc3cccc(-c4cccnc4)c3)c2cc1OC — inhibition (mitochondrial oxygen consumption, Seahorse XF96; 10 µM): 8%
O=C(/C=C/C=C/C=C/C1CCCCC1)NC1=C[C@@](O)(/C=C/C=C/C=C/C(=O)NC2=C(O)CCC2=O)[C@@H]2O[C@@H]2C1=O — GI50 (cell growth, CellTiter-Glo; 78 h): > 30 µM
CN1CCN(c2ccc3[nH]c(-c4ccc5[nH]c(-c6ccc(C(F)(F)F)cc6)nc5c4)nc3c2)CC1 — growth percent (SRB; 10 µM, 48 h): 89.8%
COc1ccc2nccc(Cc3cccc(-c4ccccc4)c3)c2c1 — inhibition (mitochondrial oxygen consumption, Seahorse XF96; 10 µM): 81%
Cc1cc2c(cc1C)[n+](Cc1ccc3ccccc3c1)cn2Cc1ccc2ccccc2c1.[Br-] — TGI (NCI60 five-dose): 2.95 µM
C/C(=N\O)c1ccc(-c2ccc(O)c(Cl)c2)c(Cl)c1O — 2-NBDG uptake (fluorescence imaging; 30 µM, with: 50 µM 2-NBDG, 15 min; relative to: DMSO): 38%
COc1c(C)c(OCc2ccccc2)c(C)c(O)c1C(=O)/C=C/c1ccccc1 — selectivity index (relative to: CL over A549): 2.26
COc1ccc2nccc(Cc3cccc(-c4ccc(C5COC5)cc4)c3)c2c1 — inhibition (mitochondrial oxygen consumption, Seahorse XF96; 10 µM): 95%
O=c1ccn(Cc2cn(-c3c4ccccc4nc4ccccc34)nn2)c(=O)[nH]1 — growth (NCI60 single dose; 10 µM): 91.2%

A few entries again:
O=C1/C(=C/c2ccc3ccccc3c2O)NC(=S)N1c1ccccc1 — selectivity index (MTT; relative to: BJ1 over A549): 2
C#CCN(Cc1cnc2nc(N)nc(N)c2n1)c1ccc(C(=O)N2CCC(C(=O)OC)CC2)cc1 — cell growth (CellTiter-Glo; 10 µM; 100 none, 0 cytostatic, -100 cytotoxic): 104 ± 4.42%
COc1ccc(Cc2nccc3cc(C4COC4)ccc23)cc1OC — inhibition (mitochondrial oxygen consumption, Seahorse XF96; 10 µM): 91%
